{"data": "Measured values pooled from the literature", "note": "Each line is one published result; not all experiments were run side by side. ± marks the error that the study gave."}
{"SMILES": "COc1ccccc1NC(=O)OC1C(C)C(OC)C=COC2(C)Oc3c(C)c(O)c4c(c3C2=O)C2=NC3(CCN(CC(C)C)CC3)NC2=C(NC(=O)C(C)=CC=CC(C)C(O)C(C)C(O)C1C)C4=O (stereo not drawn)", "target or system": "Mycobacteroides abscessus", "assay": "intracellular growth, Hill fit", "test system": "THP-1 derived macrophages, ATCC 19977", "endpoint": "IC50", "result": "12 nM"}
{"SMILES": "Cn1c2ccc([N+](=O)[O-])cc2c(=O)n1Cc1ccccc1", "target or system": "Leishmania amazonensis", "assay": "parasite growth, resazurin", "conditions": "promastigote", "endpoint": "IC50", "result": "2010 nM"}
{"SMILES": "CNCc1ccc2c(c1)N(C(=O)OCc1c(F)c(F)c(F)c(F)c1F)[C@H](CNC(=N)N)[C@H]2NC(=O)C(=O)Nc1ccc(Cl)c(F)c1", "target or system": "HIV-1", "assay": "pseudovirus infection, Env pseudovirus neutralisation", "test system": "TZM-bl, clade C T/F isolate 2A2", "endpoint": "IC50", "result": "7060 nM"}
{"SMILES": "COC1C=COC2(C)Oc3c(C)c(O)c4c(c3C2=O)C2=NC3(CCN(CC(C)C)CC3)NC2=C(NC(=O)C(C)=CC=CC(C)C(O)C(C)C(O)C(C)C(OC(=O)Nc2cccnn2)C1C)C4=O (stereo not drawn)", "target or system": "Mycobacteroides abscessus", "assay": "bacterial growth", "test system": "subsp. massiliense 097 clinical isolate", "conditions": "rough, slow grower", "endpoint": "IC50", "result": "34 nM"}
{"SMILES": "CC[C@H](C)[C@H](NC(=O)[C@H](CCC(N)=O)NC(=O)[C@H](CC(C)C)NC(=O)[C@H](Cc1c[nH]c2ccccc12)NC(=O)[C@H](CC(C)C)NC(=O)[C@@H](NC(=O)[C@H](CCC(N)=O)NC(=O)[C@H](CC(C)C)NC(=O)[C@H](CCCNC(=N)N)NC(=O)[C@H](C)NC(=O)[C@@H](NC(=O)[C@H](CCCCN)NC(=O)[C@@H](N)CCC(N)=O)[C@@H](C)CC)[C@@H](C)O)C(=O)NCC(=O)N[C@H](C(=O)N[C@@H](CC(C)C)C(=O)N[C@@H](CC(C)C)C(N)=O)C(C)C", "target or system": "HIV-1 HXB2", "assay": "viral infection, luciferase reporter", "test system": "TZM-bl", "endpoint": "IC50", "result": "> 4000 nM"}
{"SMILES": "O=C(O)CN1C(=O)CNC2(CCCCCC2)C1=O", "target or system": "Trypanosoma brucei", "assay": "parasite growth", "conditions": "pH 7.4, blood stage", "endpoint": "IC50", "result": "> 400000 nM"}
{"SMILES": "COC(=O)CCn1c2ccc([N+](=O)[O-])cc2c(=O)n1Cc1ccccc1", "target or system": "Leishmania amazonensis", "assay": "parasite growth, resazurin", "conditions": "promastigote", "endpoint": "IC50", "result": "610 nM"}
{"SMILES": "O=C(O)CN1C(=O)C(Cc2ccccc2)NC2(C1=O)C1CC3CC(C1)CC2C3 (stereo not drawn)", "target or system": "Trypanosoma brucei", "assay": "parasite growth", "conditions": "pH 7.4, blood stage", "endpoint": "IC50", "result": "103000 nM"}
{"SMILES": "C[n+]1ccc(/C=N/NC(=O)c2cncc(C(=O)N/N=C/c3cc[n+](C)cc3)n2)cc1", "target or system": "hp2 hairpin duplex DNA", "assay": "FRET melting", "conditions": "1 µM", "endpoint": "ΔTm", "result": "-0.3 °C"}
{"SMILES": "COC(=O)Cn1c2ccc([N+](=O)[O-])cc2c(=O)n1Cc1ccccc1", "target or system": "Leishmania amazonensis", "assay": "parasite growth, resazurin", "conditions": "promastigote", "endpoint": "IC50", "result": "580 nM"}
{"SMILES": "O=C(Oc1cc(OC(=O)c2cc(O)c(O)c(O)c2)c2ccccc2c1)c1cc(O)c(O)c(O)c1", "target or system": "Human alphaherpesvirus 2", "assay": "viral replication, inhibitor, qPCR", "test system": "Vero", "endpoint": "IC50", "result": "3670 nM"}
{"SMILES": "CCCOC(=O)N1c2cc(CNC)ccc2[C@H](NC(=O)C(=O)Nc2ccc(Cl)c(F)c2)[C@H]1CNC(=N)N", "target or system": "HIV-1", "assay": "pseudovirus infection, Env pseudovirus neutralisation", "test system": "TZM-bl, clade B transmitted/founder", "endpoint": "IC50", "result": "49 nM"}
{"SMILES": "C[n+]1ccc(/C=N/NC(=O)c2cccc(C(=O)N/N=C/c3cc[n+](C)c4ccccc34)c2)c2ccccc21", "target or system": "hp2 hairpin duplex DNA", "assay": "FRET melting", "conditions": "1 µM", "endpoint": "ΔTm", "result": "0.2 ± 0.1 °C"}
{"SMILES": "O=c1c2cc([N+](=O)[O-])ccc2n(CCBr)n1Cc1ccccc1", "target or system": "Leishmania amazonensis", "assay": "parasite growth, resazurin", "conditions": "promastigote", "endpoint": "IC50", "result": "1190 nM"}
{"SMILES": "CNCc1ccc2c(c1)C[C@H](CNC(=N)N)[C@H]2NC(=O)C(=O)Nc1ccc(Cl)c(F)c1", "target or system": "HIV-1", "assay": "pseudovirus infection, Env pseudovirus neutralisation", "test system": "TZM-bl, clade C T/F isolate 2A2", "endpoint": "IC50", "result": "> 100000 nM"}
{"note": "Excerpt of the above:"}
{"SMILES": "CC[C@H](C)[C@H](NC(=O)[C@H](CCC(N)=O)NC(=O)[C@H](CC(C)C)NC(=O)[C@H](Cc1c[nH]c2ccccc12)NC(=O)[C@H](CC(C)C)NC(=O)[C@@H](NC(=O)[C@H](CCC(N)=O)NC(=O)[C@H](CC(C)C)NC(=O)[C@H](CCCNC(=N)N)NC(=O)[C@H](C)NC(=O)[C@@H](NC(=O)[C@H](CCCCN)NC(=O)[C@@H](N)CCC(N)=O)[C@@H](C)CC)[C@@H](C)O)C(=O)NCC(=O)N[C@H](C(=O)N[C@@H](CC(C)C)C(=O)N[C@@H](CC(C)C)C(N)=O)C(C)C", "target or system": "HIV-1 HXB2", "assay": "viral infection, luciferase reporter", "test system": "TZM-bl", "endpoint": "IC50", "result": "> 4000 nM"}
{"SMILES": "O=C(Oc1cc(OC(=O)c2cc(O)c(O)c(O)c2)c2ccccc2c1)c1cc(O)c(O)c(O)c1", "target or system": "Human alphaherpesvirus 2", "assay": "viral replication, inhibitor, qPCR", "test system": "Vero", "endpoint": "IC50", "result": "3670 nM"}
